{"data": "Measured values of several laboratories", "note": "Every numbered part comes from another study and shows a few of its results, in no order."}
{"data": "Sample 1", "target": "Interferon regulatory factor 7, full length, phosphomimetic (IRF7, Homo sapiens, UniProt Q92985, residues 1-503, S101K/S471D/S472D/S475D/S476D/S477D/S483D/S484D/S487D)", "method": "protein-binding microarray", "molecule type": "double-stranded DNA, one strand shown", "matrix": "in vitro", "concentration": "250 nM", "setting": "60-bp whole probe", "together with": "salmon DNA 0.4 mg/ml", "reference": "random background probes", "direction": "higher = stronger binding", "constant ends, left off below": "GCCTAGCAC … GTCTTGATTCGCTTGACGCTGCTG", "Construct (chain)": "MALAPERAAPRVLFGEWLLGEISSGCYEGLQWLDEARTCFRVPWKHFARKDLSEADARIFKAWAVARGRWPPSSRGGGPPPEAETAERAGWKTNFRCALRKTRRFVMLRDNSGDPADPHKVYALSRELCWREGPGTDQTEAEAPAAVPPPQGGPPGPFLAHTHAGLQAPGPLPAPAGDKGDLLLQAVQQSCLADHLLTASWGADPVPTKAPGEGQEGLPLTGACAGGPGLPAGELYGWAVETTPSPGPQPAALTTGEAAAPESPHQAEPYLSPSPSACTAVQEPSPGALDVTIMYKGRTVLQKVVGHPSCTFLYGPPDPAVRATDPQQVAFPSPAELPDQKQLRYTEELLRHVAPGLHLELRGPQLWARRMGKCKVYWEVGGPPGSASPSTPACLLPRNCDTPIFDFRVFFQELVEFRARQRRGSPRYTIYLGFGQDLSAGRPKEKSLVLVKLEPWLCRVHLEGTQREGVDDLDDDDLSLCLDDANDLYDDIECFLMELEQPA"}
{"Oligonucleotide": "TCATGACTCCCTCTCTGACTGTGCTAG", "log fluorescence [z-score]": -0.514}
{"Oligonucleotide": "GATGGTATCGGTCTCGGGACGTGCTAG", "log fluorescence [z-score]": 0.817}
{"Oligonucleotide": "GACGGTATCGGTCTAGGGACGTGCTAG", "log fluorescence [z-score]": 0.518}
{"Oligonucleotide": "TTAGGACTGTTACTGCTTTAGTGCTAG", "log fluorescence [z-score]": 0.112}
{"Oligonucleotide": "GACGGTATCCTACTACTGACGTGCTAG", "log fluorescence [z-score]": 0.0328}
{"Oligonucleotide": "TACGGTATCGGGTTTCGGGACGTGCTA", "log fluorescence [z-score]": 3.43}
{"Oligonucleotide": "TTAGATTTCGAGTTTCGATTAGTGCTA", "log fluorescence [z-score]": 8.68}
{"Oligonucleotide": "GACGGTCTCCCTTTCCTGACGTGCTAG", "log fluorescence [z-score]": 0.625}
{"Oligonucleotide": "TCAGTTTCACTTTCCAAACTGTGCTAG", "log fluorescence [z-score]": 11.5}
{"Oligonucleotide": "GACGGTTTCCTTTTCCTGCCGTGCTAG", "log fluorescence [z-score]": 6.16}
{"Oligonucleotide": "GACGAACTGAGTATCGATACGTGCTAG", "log fluorescence [z-score]": 0.428}
{"Oligonucleotide": "ATTGCTTCCTCTTTACTGCTGTGCTAG", "log fluorescence [z-score]": 1.12}
{"Oligonucleotide": "GACGATTTCGGGTATCGATACGTGCTA", "log fluorescence [z-score]": 1.25}
{"Oligonucleotide": "TGCAACATCTACAATGGCTTTGTGCTA", "log fluorescence [z-score]": -0.784}
{"Oligonucleotide": "GAGGGACTGGACTATCGGGACGTGCTA", "log fluorescence [z-score]": -0.814}
{"Oligonucleotide": "TTAGATCTCAGACTGGATCAGTGCTAG", "log fluorescence [z-score]": -0.211}
{"Oligonucleotide": "TTAGGTTACCTTCTCCTTTAGTGCTAG", "log fluorescence [z-score]": 0.452}
{"Oligonucleotide": "TCAATTCTCGGGACTCACACTGTGCTA", "log fluorescence [z-score]": 0.63}
{"Oligonucleotide": "GACGGTATCCATATCCTGACGTGCTAG", "log fluorescence [z-score]": 0.365}
{"Oligonucleotide": "TTAGGAATGCTTTTCCTTTAGTGCTAG", "log fluorescence [z-score]": 0.952}
{"Oligonucleotide": "TTAGGTTTCGGATTCGGTTAGTGCTAG", "log fluorescence [z-score]": 12.2}
{"Oligonucleotide": "GACGGTTTAGGGTATCGGGACGTGCTA", "log fluorescence [z-score]": -0.00522}
{"Oligonucleotide": "GACGATATCGGGTATCGATACGTGCTA", "log fluorescence [z-score]": 0.485}
{"Oligonucleotide": "TCATAAATGATATATATCACTGTGCTA", "log fluorescence [z-score]": 0.193}
{"Oligonucleotide": "TTAGGACTGGGTATCGGTTCGTGCTAG", "log fluorescence [z-score]": 2.06}
{"data": "Sample 2", "target": "Sal-like protein 4, full length isoform A (SALL4, Homo sapiens, UniProt Q9UJQ4, residues 1-1053)", "method": "universal PBM", "molecule type": "double-stranded DNA, one strand shown", "matrix": "in vitro", "concentration": "600 nM", "setting": "8-mer, flanks averaged, mean of replicates", "direction": "higher = stronger binding", "sequence of UniProt Q9UJQ4 (whole entry, looked up)": "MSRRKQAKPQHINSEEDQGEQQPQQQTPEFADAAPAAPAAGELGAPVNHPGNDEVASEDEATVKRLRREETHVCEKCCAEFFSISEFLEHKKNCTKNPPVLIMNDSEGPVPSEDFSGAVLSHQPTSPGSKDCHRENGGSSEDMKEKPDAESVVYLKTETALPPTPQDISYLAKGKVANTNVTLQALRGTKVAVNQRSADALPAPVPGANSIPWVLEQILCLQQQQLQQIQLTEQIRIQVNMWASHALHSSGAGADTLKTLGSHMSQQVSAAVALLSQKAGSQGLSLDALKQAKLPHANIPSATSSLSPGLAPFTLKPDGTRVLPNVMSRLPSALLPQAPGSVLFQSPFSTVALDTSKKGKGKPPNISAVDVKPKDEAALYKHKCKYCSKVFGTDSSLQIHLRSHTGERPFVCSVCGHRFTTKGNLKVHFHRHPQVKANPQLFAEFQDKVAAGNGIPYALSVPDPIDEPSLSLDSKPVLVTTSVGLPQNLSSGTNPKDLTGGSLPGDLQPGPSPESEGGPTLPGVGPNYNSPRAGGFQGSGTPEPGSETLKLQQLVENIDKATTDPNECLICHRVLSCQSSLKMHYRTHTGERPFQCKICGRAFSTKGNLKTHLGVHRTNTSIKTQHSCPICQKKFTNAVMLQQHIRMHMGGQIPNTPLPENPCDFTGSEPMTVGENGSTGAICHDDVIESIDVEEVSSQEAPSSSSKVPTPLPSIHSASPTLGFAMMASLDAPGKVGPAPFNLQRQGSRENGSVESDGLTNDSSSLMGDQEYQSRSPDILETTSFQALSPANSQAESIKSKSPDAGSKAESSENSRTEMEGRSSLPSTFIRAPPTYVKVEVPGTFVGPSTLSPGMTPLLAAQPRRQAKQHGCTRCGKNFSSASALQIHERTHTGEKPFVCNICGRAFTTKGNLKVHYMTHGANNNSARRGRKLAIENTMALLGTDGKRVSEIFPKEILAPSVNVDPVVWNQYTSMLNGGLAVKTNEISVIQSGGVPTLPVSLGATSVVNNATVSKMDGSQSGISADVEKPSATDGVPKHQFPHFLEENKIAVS"}
{"Oligonucleotide": "ACGGCTAC", "E-score": -0.189}
{"Oligonucleotide": "CCAGGAAA", "E-score": 0.0424}
{"Oligonucleotide": "GCGATGGA", "E-score": -0.2}
{"Oligonucleotide": "AAAACCCA", "E-score": 0.0659}
{"Oligonucleotide": "ACTCCGCA", "E-score": -0.259}
{"Oligonucleotide": "CCGTCAAC", "E-score": -0.102}
{"Oligonucleotide": "GCCAGTCA", "E-score": -0.193}
{"Oligonucleotide": "CTCTAGGA", "E-score": -0.188}
{"Oligonucleotide": "GTCGGTTA", "E-score": 0.0144}
{"Oligonucleotide": "CAGCGCTC", "E-score": -0.151}
{"Oligonucleotide": "ACATTCGC", "E-score": -0.0623}
{"Oligonucleotide": "GGCTCACC", "E-score": -0.37}
{"Oligonucleotide": "CGTGATGA", "E-score": 0.000945}
{"Oligonucleotide": "ACGACCGG", "E-score": -0.293}
{"Oligonucleotide": "CAGGGAGC", "E-score": -0.247}
{"Oligonucleotide": "ATGGAGTC", "E-score": 0.0633}
{"Oligonucleotide": "AGTAGGAG", "E-score": -0.246}
{"Oligonucleotide": "ATACACAA", "E-score": 0.33}
{"Oligonucleotide": "ACGTTTGA", "E-score": 0.209}
{"Oligonucleotide": "CAATTTTC", "E-score": 0.235}
{"Oligonucleotide": "CGTTGAAA", "E-score": -0.023}
{"Oligonucleotide": "ATGATTTA", "E-score": 0.303}
{"Oligonucleotide": "GACGTAAC", "E-score": 0.0152}
{"Oligonucleotide": "CACAATTC", "E-score": 0.183}
{"Oligonucleotide": "GCTTCAAA", "E-score": 0.0986}
{"data": "Sample 3", "target": "Phosphate system positive regulatory protein PHO4, full length, GST-tagged (PHO4, Saccharomyces cerevisiae, UniProt P07270, residues 1-312)", "method": "competition protein-binding microarray", "molecule type": "double-stranded DNA, one strand shown", "matrix": "in vitro", "concentration": "2 µM", "setting": "whole 60-bp probe, lowest competitor level", "together with": "Cbf1 competitor, 0.05 µM", "direction": "higher = stronger binding", "constant ends, left off below": "… GTCTTGATTCGCTTGACGCTGCTG", "sequence of UniProt P07270 (whole entry, looked up)": "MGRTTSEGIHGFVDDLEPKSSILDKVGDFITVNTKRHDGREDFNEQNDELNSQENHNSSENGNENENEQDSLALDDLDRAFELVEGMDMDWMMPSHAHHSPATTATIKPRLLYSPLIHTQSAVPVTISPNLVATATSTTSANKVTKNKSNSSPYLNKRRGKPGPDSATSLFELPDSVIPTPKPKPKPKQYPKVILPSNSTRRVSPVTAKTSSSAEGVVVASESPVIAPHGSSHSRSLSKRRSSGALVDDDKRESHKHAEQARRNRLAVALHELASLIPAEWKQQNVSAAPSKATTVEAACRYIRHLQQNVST"}
{"Oligonucleotide": "CTAACGAAGGTTTGCATAGTGGGTGACAAGCCAAGT", "fluorescence intensity": "4460 a.u."}
{"Oligonucleotide": "TTTTGCTCAAACGGTCGCGTGCTAAGCGGAACGAGA", "fluorescence intensity": "9090 a.u."}
{"Oligonucleotide": "AAATTACTAAGTTGCGTAGTGGGTGACGCCGTATGA", "fluorescence intensity": "3970 a.u."}
{"Oligonucleotide": "CAGAATTGTCCGAATCGTGTGACGGAAACAGCCTGT", "fluorescence intensity": "4720 a.u."}
{"Oligonucleotide": "TTTCATGGACTTTTTCACGTGGTCGTTGCCATTTGT", "fluorescence intensity": "14400 a.u."}
{"Oligonucleotide": "AATGATGTGCTTGTCATCGTGGGTAACTTCACCAGC", "fluorescence intensity": "8660 a.u."}
{"Oligonucleotide": "GAAGGTTCCCGGTCCGTTGTGATGGGAAGATCTGAC", "fluorescence intensity": "3590 a.u."}
{"Oligonucleotide": "CGGGGTTAAGTTTGTAGAGTGGGTGGCTTGCAGCAG", "fluorescence intensity": "4740 a.u."}
{"Oligonucleotide": "AAAGCGGTAATTTGACGTGTGGGTGCAGATATCTAT", "fluorescence intensity": "5560 a.u."}
{"Oligonucleotide": "TTGAACATAGAAGACCGCGTGATGGATTTTAGTGCG", "fluorescence intensity": "8900 a.u."}
{"Oligonucleotide": "GCTTGGACCATAAAATACGTGACGGAGGACACCATA", "fluorescence intensity": "4180 a.u."}
{"Oligonucleotide": "ATTTGTCAATGCCATCACGATGCAAGTCAGTGATGT", "fluorescence intensity": "8490 a.u."}
{"Oligonucleotide": "ACCTAGGACTACCAACACATGCAAGGATGCCAGTCT", "fluorescence intensity": "7810 a.u."}
{"Oligonucleotide": "AGAGAGTGGGATGCGGGCGTGGGTATCTGCTGTTAC", "fluorescence intensity": "9010 a.u."}
{"Oligonucleotide": "GATCTTGGATACGACCGTGTGACGCCCGAGACTCTT", "fluorescence intensity": "6160 a.u."}
{"Oligonucleotide": "CTTCTGTAAATTTGTCACCCGACTTGACGCGCCCCG", "fluorescence intensity": "3450 a.u."}
{"Oligonucleotide": "AAAGCGGTAATTTGTTTTGTGGGTGCAGATATCTAT", "fluorescence intensity": "3780 a.u."}
{"Oligonucleotide": "ACTCCGGTGTTGAAGTCCGTGTCTGTCCAACCAAGA", "fluorescence intensity": "6130 a.u."}
{"Oligonucleotide": "TGTTGCAGTCGAATTCTCGTGGCCGTACGCAATTTC", "fluorescence intensity": "6140 a.u."}
{"data": "Sample 4", "target": "RNA binding protein fox-1 homolog 2, RRM domain, GST-SBP tag (RBFOX2, Homo sapiens, UniProt O43251-10, residues 100-194)", "method": "RNA Bind-n-Seq", "molecule type": "RNA", "matrix": "in vitro", "concentration": "365 nM", "setting": "natural RNA segment, single round, ends assumed", "reference": "no-protein control", "direction": "higher = stronger binding", "constant ends, left off below": "GGGAGUUCUACAGUCCGACGAUC … UGGAAUUCUCGGGUGCCAA", "Residues (chain)": "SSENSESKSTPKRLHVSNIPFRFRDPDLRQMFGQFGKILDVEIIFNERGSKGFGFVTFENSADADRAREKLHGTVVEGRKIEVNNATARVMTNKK"}
{"Oligonucleotide": "AUGGUUUGGGAUCUUUUUGCACUGAGCAAUUUUAUUUCAGGCUUCCAGCUGUCCCUGUGAGUUAUCCUGGACAUUUCGAUGGUUUUUGGUAAGGCCAAACUCUGAUAAGC", "RBNS enrichment (R)": 0.484}
{"Oligonucleotide": "AGGAGGAGAUGAGAGACUCUGGCAUGAUCUUUUUUUUGUCCCACUUGGUGGGGCCAGGGUCCUCUCCCCUGCCCAGGAAUGUGCAAGGCCAGGGCAUGGGGGCAAAUAUG", "RBNS enrichment (R)": 4.94}
{"Oligonucleotide": "UCUGUUUAGCGAAGAUAGACUAGAGGACACGUUAGAGAUGCCCUUCCCUGCUCCAUCCCUGUGGCACCAUUAUGGUUUUUUGGCUGUUUGUAUAUACGGUUACGUAUUAA", "RBNS enrichment (R)": 0.7}
{"Oligonucleotide": "UAAUAUGUGCAGGGCAGAUGUCACUACUGAAUAUCACAUCAAUGCUAGGGCUGUAUUUACUGUCACACACAGGCACCGGUAAGUGACUUUACCGGUGAAAGUCACAGGUA", "RBNS enrichment (R)": 0.318}
{"Oligonucleotide": "GAAAUGUCUCUAAAACGUUGAUCAAUCUGAAGCUUACAGAUUGGAAACUGGGCCAGGUCAGCCCUGGCGGUGGAGUCCAGAGACAGAGAGAAGGCUGCAGGGAGGGGAGA", "RBNS enrichment (R)": 0.799}
{"Oligonucleotide": "ACCCAGAGACUUGGUCUCUGCAUGUGUGUAGAAGUAGUGGUGUGGGGAGGGAUGGGACUCACUCAGCCCUGUGAAUGUGUUCUAUGGCUGAGCAACAUCCCUAGCCUUCA", "RBNS enrichment (R)": 2.59}
{"Oligonucleotide": "UGCCAAAGGCAAGACACCUAUAGUUGAGCUGUAUUUUGGGGGAUUGGGUGAGGAAGGACUUCUGAUCUUAUCUCAACAAAAAACUGGCCAGUAUUUUUGUUAAUGUAAAG", "RBNS enrichment (R)": 0.358}
{"Oligonucleotide": "CAUCAGGCCCUUAAUUAUGGCAGAGAGGUAAUCAGCUGGCUACAGCCAGGAUGCUCAGCAUUGGAAGACUGGUGUGUGAUGGCUGCUACCACCUCUCCCUGGACAGCAGC", "RBNS enrichment (R)": 0.594}
{"Oligonucleotide": "UCCCAUACUCACUCCUGACAGCUUUCCUGCACUGCAGCCUCCUGCUCCUCUGACUCUAGUGGGAACAGGCCCCAGCUCAGCCUCCGGCAGGGAGGUCACCCCUCCACUUC", "RBNS enrichment (R)": 0.311}
{"Oligonucleotide": "CUGUGGGGACAGUGGCUACUGAGAAAUCUACAUUGUAAGAGAAGACAAUGAAAGACCCUGGCCCUGUCUCUCAAAACUUAACUUUCUCUGUAUGAUUUUUUUUUUAAAAA", "RBNS enrichment (R)": 0.663}
{"Oligonucleotide": "AGUUAUACAAGUUUCUGAAUAUUUUAAAUCUUAACAUCAUAUAAAAGGCAGCAGAGGUGAGAACUCAGAAGAGAAAUACAGCUGGCUAUCUACUACCAGAAGGGCUUCAA", "RBNS enrichment (R)": 0.421}
{"Oligonucleotide": "UUGUGUGCCUUCACACCCGCCUACAGCCCCACCUCACCAUCAAGCGCUGAGCCAAUGCGGGUGUGGCUGGCCCUGAGUUCCUGAGUCAGCUCCUUGCCAGGGCCAGAGCU", "RBNS enrichment (R)": 0.308}
